Measurements pooled from the literature.
A part holds a random share of what one study measured. ± gives the spread as reported.

Study 1
Organism: SARS-CoV-2 Wuhan spike VSV pseudovirus
Observed: pseudovirus entry
Tested at: 10 µM
Compound | inhibition [%]
CCc1ccccc1-c1ccc(NC(C)=O)c(OC)c1 | 83
COc1ccc(C(=O)N(C)CC2CCN(CCc3ccccc3OC)CC2)cc1F | 60
CCn1nc(C)c(CNC(=O)C2CCC(=O)N(CCc3ccccn3)C2)c1C (stereo not shown) | 68
CCSc1nc(CC(=O)N(C)Cc2nonc2C)cs1 | 99
CN(c1ccc([N+](=O)[O-])cc1S(=O)(=O)N1CCOCC1)C1CCCCC1 | 71
CC1CCCCN1Cc1c(O)ccc2cc(-c3nc4ccccc4s3)c(=O)oc12 (stereo not shown) | 67
CCCNC(=O)C1CCCN1C(=O)c1ccc(NC(=O)C(C)(C)C)cc1 (stereo not shown) | 54
CCCN(CCC)C(=O)c1c[nH]c2ccc(S(=O)(=O)N(C)c3ccccc3OCC)cc2c1=O | 64
CC(Cc1c[nH]c2ccccc12)NC(=O)Cn1ccc2cc(Br)ccc21 (stereo not shown) | 58
Cc1ccc2[nH]c(C(=O)NCc3cccs3)c(NCc3ccc(Cl)cc3)c2c1 | 53
CC(C)Oc1ccc(C(=O)Nc2nc3c(s2)CN(Cc2ccccc2)CC3)cc1 | 60
Cc1nc(C(=O)N2CCC3(CCCN(CC4CCC4)C3=O)C2)cs1 (stereo not shown) | 79
CN(C)S(=O)(=O)c1cccc(Cn2ncc(Cl)c(Cl)c2=O)c1 | 100
CC1=C(O)C(=O)C=C2C1=CC=C1[C@@]2(C)CC[C@@]2(C)[C@@H]3C[C@](C)(C(=O)O)CC[C@]3(C)CC[C@]12C | 100
Nc1ccc(OC2=C(Cl)C(=O)c3ccccc3C2=O)cc1 | 96
CCOc1ccccc1CN1CCN(Cc2ccc3nsnc3c2)CC1CCO (stereo not shown) | 59
Fc1ccc(Nc2nc3nonc3nc2Nc2cccc(C(F)(F)F)c2)cc1 | 56
Cn1ccnc1C(=O)C1CCCN(C(=O)c2cc(COc3ccc(F)c(F)c3)on2)C1 (stereo not shown) | 75
COc1ccc(NC(=O)C2CCN(C(=O)C3Sc4ccccc4NC3=O)CC2)cc1 (stereo not shown) | 88
Cc1cc(-n2c(C)cc(C(=O)Cn3ncc(Cl)c(Cl)c3=O)c2C)no1 | 65
Cc1ccc(NC2CCCN(C(=O)c3scc4c3OCCO4)C2)cc1C (stereo not shown) | 68
CC(C)(C)C(=O)/C(=C/c1cccc([N+](=O)[O-])c1)n1cncn1 | 98
COc1cccc(Cl)c1-c1csc(C(N)=O)c1 | 100
CN(CCCNC(=O)c1cc2c(s1)-c1ccc(Cl)cc1SC2)Cc1ccccc1 | 90

Other studies, line by line
Spike glycoprotein S2 subunit: Spike glycoprotein, S2 subunit (Severe acute respiratory syndrome coronavirus 2, UniProt P0DTC2)
rep nsp14: Replicase polyprotein 1ab, nsp14 (rep, Severe acute respiratory syndrome coronavirus 2, UniProt P0DTD1)
Matrix protein 2 S31N: Matrix protein 2 (Influenza A virus, UniProt P0DOF5, S31N)
Compound | tested on | test | system | setting | how to read | quantity | value
O=c1nc(NO)ccn1[C@@H]1O[C@H](CO)[C@@H](F)[C@H]1O | SARS-CoV-2 |  | Vero, variants other than Omicron | concentration not given, highest concentration tested |  | antiviral activity | inactive
N#C[C@@]1(n2ccc(N)nc2=O)O[C@H](CO)[C@@H](O)[C@H]1O | SARS-CoV-2 | viral replication | Vero, Alpha |  |  | EC90 | 4800 ± 30 nM
CC(C)[C@H](NC(=O)[C@H](CCCNC(=N)N)NC(=O)N[C@@H](Cc1ccccc1)C(=O)O)C(=O)N[C@H](C=O)CCCNC(=N)N | SARS-CoV-2 | viral replication | Vero C1008, B.1.1.7 |  |  | EC50 | 35400 nM
CC(C)C(=O)OC[C@H]1O[C@@H](n2ccc(NO)nc2=O)[C@H](O)[C@@H]1O | SARS-CoV-2 | viral RNA copies | Vero C1008, Omicron BA.1 | 48 h |  | EC50 | 2710 ± 110 nM
Cc1cc(C(C#N)c2ccc(Cl)cc2)c(Cl)cc1NC(=O)c1cc(I)cc(I)c1O (stereo not shown) | Spike glycoprotein S2 subunit |  |  | S2 subunit |  | ΔTm | -2.39 °C
O=C1c2c(O)c(=O)ccn2N([C@@H]2c3ccccc3SCc3c2ccc(F)c3F)[C@@H]2COCCN12 | influenza A(H1N1)pdm09 virus |  | rg-A/California/04/2009 PA-I38T |  |  | EC50 | 22.3 ± 3.49 nM
CO[C@H]1/C=C/O[C@@]2(C)Oc3c(C)c(O)c4c(O)c(c(/C=N/N5CCN(C)CC5)c(O)c4c3C2=O)NC(=O)/C(C)=C\C=C\[C@H](C)[C@H](O)[C@@H](C)[C@@H](O)[C@@H](C)[C@H](OC(C)=O)[C@@H]1C | Mycobacterium tuberculosis |  | H37Rv katG deletion |  |  | MIC | 0.008 µg/mL
CCC(CC)COC(=O)[C@H](C)N[P@](=O)(OC[C@H]1O[C@@](C#N)(c2ccc3c(N)ncnn23)[C@H](O)[C@@H]1O)Oc1ccccc1 | SARS-CoV-2 Omicron | viral replication | Calu-3 |  |  | EC50 | 100 ± 50 nM
O=C(NC1CCN(c2ncnc3[nH]cnc23)CC1)c1cccc(S(=O)(=O)N2CCCCC2)c1 | rep nsp14 | NSP14 enzyme activity, inhibitor |  | 0.04883 µM |  | inhibition | -4.95%
CCC(CC)COC(=O)[C@H](C)N[P@](=O)(OC[C@H]1O[C@@](C#N)(c2ccc3c(N)ncnn23)[C@H](O)[C@@H]1O)Oc1ccccc1 | SARS-CoV-2 | viral replication | Calu-3, B.1.617.2 Delta variant | 72 h |  | EC50 | 2780 nM
CC12CC3CC1(C)CC3(CN)C2 | Matrix protein 2 S31N |  |  | concentration not given, pH 5.5, cell-based |  | inhibition | 0%
CCC(CC)COC(=O)[C@H](C)N[P@](=O)(OC[C@H]1O[C@@](C#N)(c2ccc3c(N)ncnn23)[C@H](O)[C@@H]1O)Oc1ccccc1 | SARS-CoV-2 | viral replication | Vero C1008, B.1.351 |  |  | EC50 | 700 nM
CC(C)(C)[C@H](NC(=O)C(F)(F)F)C(=O)N1C[C@H]2[C@@H]([C@H]1C(=O)N[C@H](C#N)C[C@@H]1CCNC1=O)C2(C)C | SARS-CoV-2 | viral replication | VeroE6/TMPRSS2, Omicron variants | 0.3 µM |  | inhibition | 100%
Nc1ncnc2c1ncn2[C@@H]1O[C@H](CO)[C@@H](O)[C@@H]1O | SARS-CoV-2 | infectious virus yield | Vero C1008, Omicron BA.1 | 48 h |  | EC50 | 3210 ± 120 nM
CCCCCCCCCCCC(=O)ONc1ccn([C@@H]2O[C@H](CO)[C@@H](O)[C@H]2O)c(=O)n1 | SARS-CoV-2 |  |  |  | relative to: CC50 over EC50 | selectivity index | 7 to 49
CO[C@H]1/C=C/O[C@@]2(C)Oc3c(C)c(O)c4c(O)c(c(/C=N/N5CCN(C)CC5)c(O)c4c3C2=O)NC(=O)/C(C)=C\C=C\[C@H](C)[C@H](O)[C@@H](C)[C@@H](O)[C@@H](C)[C@H](OC(C)=O)[C@@H]1C | Mycobacterium tuberculosis | bacterial growth | fluoroquinolone-resistant |  |  | IC50 | 13 nM
O=C(/C=C/c1ccc(O)c(O)c1)OCCc1ccccc1 | Spike glycoprotein S2 subunit |  |  | S2 subunit |  | ΔTm | -0.15 °C
O=[N+]([O-])c1cn2c(n1)OC[C@@H](OCc1ccc(OC(F)(F)F)cc1)C2 | Mycobacterium tuberculosis |  | H37Rv katG deletion |  |  | MIC | 0.06 µg/mL
CN(C)CCn1c(C(=O)N2CCN(c3ccccc3Cl)CC2)c(C(c2ccc(O)cc2)c2ccc(O)cc2)c2ccccc21 | SARS-CoV-2 | viral replication | 293T-ACE2, USA-WA1/2020 |  |  | EC90 | ~107 nM
C[C@@H]1O[C@@H](O[C@H]2[C@H](OC(=O)[C@]34CCC(C)(C)C[C@H]3C3=CC[C@@H]5[C@@]6(C)C[C@H](O)[C@H](O[C@@H]7O[C@H](CO)[C@@H](O)[C@H](O)[C@H]7O)C(CO)(CO)[C@@H]6CC[C@@]5(C)[C@]3(C)C[C@H]4O)OC[C@H](O)[C@@H]2O)[C@H](O)[C@H](O)[C@H]1O[C@@H]1OC[C@@H](O)[C@H](O[C@@H]2OC[C@](O)(CO)[C@H]2O)[C@H]1O | SARS-CoV-2 | pseudovirus entry | H1299 ACE2/TMPRSS2+ |  |  | IC50 | 1340 nM
C[C@H]1COc2c(N3CCN(C)CC3)c(F)cc3c(=O)c(C(=O)O)cn1c23 | Mycobacterium tuberculosis |  | fluoroquinolone-resistant |  |  | MIC | 100 µM
CC[C@H](C)[C@@H]1NC(=O)[C@H](CCC(N)=O)NC(=O)[C@H](CCC(=O)O)NC(=O)[C@H](CCCNC(=N)N)NC(=O)[C@@H]2CCCN2C(=O)[C@H](CCCNC(=N)N)NC(=O)[C@H](CCCNC(=N)N)NC(=O)[C@H](Cc2ccc(O)cc2)NC(=O)CSC[C@@H](C(=O)NCC(N)=O)NC(=O)[C@H](Cc2ccccc2)NC(=O)[C@H](C(C)C)NC(=O)[C@H](Cc2c[nH]c3ccccc23)NC(=O)[C@H](CC(C)C)NC(=O)[C@H](CO)NC(=O)CNC(=O)[C@H]([C@@H](C)CC)NC(=O)[C@H]([C@@H](C)CC)NC1=O | SARS-CoV-2 spike protein Beta variant | binding |  |  |  | Kd | 60 nM
O=C(NC1CCN(c2ncnc3[nH]cnc23)CC1)c1cccc(S(=O)(=O)N2CCCC2)c1 | rep nsp14 | NSP14 enzyme activity, inhibitor |  | 12.5 µM |  | inhibition | 82.7%
N#Cc1ccc(N2CCC(c3ccc(C(=O)O)cc3)=N2)cc1Cl | SARS-CoV-2 | viral replication | Calu-3, B.1.617.2 Delta variant | 72 h |  | EC50 | 61700 nM
Cl.NCC12C3CCC4C3C3C(CCC31)C42 | Matrix protein 2 S31N |  |  | concentration not given, pH 5.5, cell-based |  | inhibition | 0%
